Published values from different studies.
Each numbered part is a random draw from the data of one study; scales do not carry over between parts. Changes are numbered by the printed parent chain.

Block 1 — technique: aptamer microarray, sandwich; molecule type: DNA with 2'F-ANA; sample: in vitro; tested at: 200 nM; together with: Cy3 exosite-II aptamer, 400 nM; reading: higher = stronger binding; oligonucleotide: GGTTGGTGTGGTTGG
Target: Prothrombin, mature alpha-thrombin (F2, Homo sapiens, UniProt P00734)
Setting: whole 15-mer aptamer, many near background
Modification	mean fluorescence intensity
2'F-ANA at 1 3 4 5 6 7 8 10 11 13 15	50.5 a.u.
2'F-ANA at 1 2 4 6 11	225 a.u.
2'F-ANA at 2 4 7 9 10 12 13	103 a.u.
2'F-ANA at 1 6 9 10 14 15	49.1 a.u.
2'F-ANA at 5 7 8 9 13 14	47.7 a.u.
2'F-ANA at 1 4 5 6 7 8 11 13 15	47.7 a.u.
2'F-ANA at 2 3 4 5 8 9 10 12 13	54.1 a.u.
2'F-ANA at 2 4 6 7 9 10 13 14	55.4 a.u.
2'F-ANA at 2 4 5 8 10 15	63.9 a.u.
2'F-ANA at 2 5 11 14	67.6 a.u.
2'F-ANA at 1 2 4 5 6 9 10 15	48.9 a.u.
2'F-ANA at 1 2 4 5 6 7 9 10 11 15	52.2 a.u.
2'F-ANA at 2 3 4 5 8 9 11 13 14 15	52.6 a.u.
2'F-ANA at 2 4 6 7 10	94.7 a.u.
2'F-ANA at 1 2 5 6 9 10 11 13 14 15	52.4 a.u.
2'F-ANA at 1 2 3 5 6 7 8 11 12 14 15	50.4 a.u.
2'F-ANA at 6 8 12 13 15	627 a.u.
2'F-ANA at 2 4 5 6 8 10	46.1 a.u.
2'F-ANA at 1 2 3 6 7 8 10 12 14	163 a.u.

Block 2 — target: CCND1, cyclin fold, Cln2 fusion (human); technique: yeast growth competition, sequencing; sample: yeast; setting: weak parent motif; baseline: not given; reading: higher = stronger binding
Parent: KIF20B docking peptide (human); KRAKRKLYTSEIS; partner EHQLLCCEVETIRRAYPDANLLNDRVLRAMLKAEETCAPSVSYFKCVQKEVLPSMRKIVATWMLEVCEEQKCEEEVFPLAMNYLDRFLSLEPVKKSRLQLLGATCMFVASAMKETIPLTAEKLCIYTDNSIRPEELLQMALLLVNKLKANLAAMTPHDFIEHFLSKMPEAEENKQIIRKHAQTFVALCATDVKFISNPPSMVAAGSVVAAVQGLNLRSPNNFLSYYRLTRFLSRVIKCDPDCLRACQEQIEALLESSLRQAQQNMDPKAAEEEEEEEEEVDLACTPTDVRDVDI
Change	normalised enrichment score
K4A	0.0807
E11A	0.0605
K6A	0.119
I12A	-0.00749
T9A	-0.3
S10A	-0.443

Block 3 — technique: RNA Bind-n-Seq; molecule type: RNA; sample: in vitro; tested at: 365 nM; baseline: no-protein control; reading: higher = stronger binding
Target: RNA binding protein fox-1 homolog 2, RRM domain, GST-SBP tag (RBFOX2, Homo sapiens, UniProt O43251-10, residues 100-194)
Setting: natural RNA segment, single round, ends assumed
Constant ends, left off below: GGGAGUUCUACAGUCCGACGAUC … UGGAAUUCUCGGGUGCCAA
Target sequence (chain): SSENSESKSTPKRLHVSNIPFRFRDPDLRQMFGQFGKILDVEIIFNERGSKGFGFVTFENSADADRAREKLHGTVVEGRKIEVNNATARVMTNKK
Oligonucleotide	RBNS enrichment (R)
CCCUCAGACAUUGGGUUGCACCCCAACAAAUAUUAAAUGGCUUCUUCUUAAAGCCCAGAGAAAGAGGUUUUUUAAAAGACUGUCGCCAAAUAGCUGAGCCAAAAGGCUGA	0.294
GCAGGAAUGCUUUUCCAUCAGGGAAUAAAUACUUAGAAGCGCUUACAAGGUGCCAGGCACCUCCUUUCUGCAUGUGCCUGCCUUUCUAGUAGCAGACAGAUGGAAACAUU	2.63
UCCUCUGGACUCCCAAGGAGGCUGGUGCCAGGGAGAUGCCCUCACCCACCCCCAUUUGCACUGAGAAGAGAAACUAUGGAGUUUUGUCUCCAAGAAUAAAGAUAGAGAGU	0.631
ACUGCAUAAUGCUCUGGCACUGUAUUUUGAAUGACAUUAAUUUAUUAAAUAAAUUGUAUAUAAUCAGAUCUGUUGGUUUUUUGGUUUUUGUUUUUUUCUUUUGUGAUGGG	0.899
CUAAUCCCUCCUUGCCCACCCAUUACAAAUGAACAUCAUCCCAAACUUUGCUUUCAGUUUCUUGGUAAGCAACAGCUGUCUGGCAAUGCUCAAGGAAUCCACAUCUGGUG	0.72
UUUGCAUGCCGACUUACAUAUAUUUGCAUGUUCGUUGACUAUCAAAGAGUGCAGAGCUCUCCCCAGCCCCGUGGGUGGUGACUUUGUUUUCCUGCGGGGCUCAGCCCCCU	4.71
UCAUCUGAUGUAAAACCAUCCCAGAGCUGGCGAGAGGAUGGAGCUGGGUGGAAACUGCUUUGCACUAUCGUUUGCUUGGUGUUUGUUUUUAACGCACAACUUGCUUGUAC	0.721
UAAAAAUGACUUCAUUGUACUUGAACACCUUUGCAUUUCUCCAUUUGUGCCAUUUACAAGUGGAAAUAAAUUUUAUUAUACCAUGAUCUACUGGCGUUUUAAAACUGUUA	0.538

Block 4 — technique: RNA Bind-n-Seq; molecule type: RNA; sample: in vitro; tested at: 200 nM; setting: whole 134-nt RNA, ends assumed; together with: 150 mM KCl; baseline: input library; reading: higher = stronger binding
Target: Fragile X messenger ribonucleoprotein 1, C-terminal low-complexity region (Fmr1, Mus musculus, UniProt P35922)
Constant ends, left off below: GGGAGUUCUACAGUCCGACGAUC … UGGAAUUCUCGGGUGUCAAGG
Oligonucleotide	log2 enrichment
AGUCCUGUGCUACACAUCGUAUGUACCGAAUCAAACCCCCAAACCCAAACCCCCAAAAAAGUAUUAUGUUACGCCGUUCGGAUCUGCACU	-0.38
GUCCUGUGCUACACAUCGUAUGUACCGAAUCGGUUUUUUGGUUUUUUGGGUUUUUUGGGAAAGUAUUAUGUUACGCCGUUCGGAUCUGCA	-0.687
AGUCCUGUGCUACACAUCGUAUGUACCGAAUCGGGAAAAAGGGAAAAAGGGAAAGGGAAAGUAUUAUGUUACGCCGUUCGGAUCUGCACU	-0.232
UCCUGUGCUACACAUCGUAUGUACCGAAUCGGGGUUUUUGGGGAAAAAGGGGAAAGGGGAAAGUAUUAUGUUACGCCGUUCGGAUCUGCA	0.712
AAGUCCUGUGCUACACAUCGUAUGUACCGAAUCGGCCCCGGGGCCCCGGGCCCCGGAAAGUAUUAUGUUACGCCGUUCGGAUCUGCACUU	-1.05
UAACUUUAGAGGAGGAUCUGAUGGAUAUGGCAGUGGACGUGGAUUUGGGGUUGGCUAUAAUGGGUAUGGAGGAGGACCUGGAGGUGGCAA	0.228
ACCAUGCAGGUGGGCAUCUUUGGGAAGUGGGGCAAGGGGGGGAUAGGGAGGAAAGUAACACUUUGGGAACAGGUGGUCCCAGGUCGUUUC	0.831
CACAGACAACACGCACCCACACAGACACAGAGGGAAGGGGUUGGGAUGGGGACAGGGUGCACAGCAGGGCGGGGUAGAACCCCAGCCCCU	1.17
CACAGACAACACGCACCCACACAGACACAGAGGGAAGGGGUUCGGAUGGGGACAGGGUGCACAGCAGGGCGGGGUAGGACCCCAGCCCCU	1.16

Further values, each from its own experiment
Substance	target	test	system	setting	scale	measurement	result
PhoQ, residues 284 288 289 292 302 303 TLASMF	PhoP, residues 12 14 15 18 19 NHFIF (Escherichia coli, UniProt P23836)	Sort-seq, measured: YFP reporter	E. coli	PhoQ-PhoP variant library, together with: 10 µM Mg2+	baseline: high Mg2+ state, higher = stronger signaling	fold induction	5.38

Excerpt of the above (block 1):
Modification	mean fluorescence intensity
2'F-ANA at 1 4 5 6 7 8 11 13 15	47.7 a.u.
2'F-ANA at 1 2 3 6 7 8 10 12 14	163 a.u.
2'F-ANA at 1 3 4 5 6 7 8 10 11 13 15	50.5 a.u.
2'F-ANA at 2 4 5 8 10 15	63.9 a.u.
2'F-ANA at 5 7 8 9 13 14	47.7 a.u.
2'F-ANA at 2 3 4 5 8 9 10 12 13	54.1 a.u.
2'F-ANA at 2 4 6 7 10	94.7 a.u.
